Measured values pooled from the literature.
Each line is one published result; not all experiments were run side by side. ± gives the spread as reported.

SMILES | test | system | setting | how to read | measurement | value
CCn1cc(-c2cc(Cn3ccnc3)cc3c2CCN([C@H](c2cc(OC)ccn2)C2CC2)C3=O)c(C(F)(F)F)n1 | – | CD-1 male mice, plasma | intravenous, 3 mg/kg | baseline: hepatic blood flow | clearance | < 25%
CCc1cc(Nc2nc(-c3ccc(-n4cnc(C)c4)c(F)c3)cs2)c(C)cc1C | – | human, both sexes, plasma | oral, 100 mg, day 1, multiple dose, geometric mean | – | terminal elimination rate constant | 2.58e-05 s⁻¹
CC(C)CCCC(C)CCCC(C)CCO[C@@H]1O[C@H](CO)[C@@H](O[C@H]2O[C@H](CO)[C@@H](O)[C@H](O)[C@H]2O)[C@H](O)[C@H]1O (stereo partly drawn) | – | surfactant/n-octane/water | 1.8 wt%, 50 °C, water/oil ratio 1, added: 1-butanol 2.7% | – | salinity range for Winsor III | 5 to 15 wt% NaCl
CC(C)c1cnc(-c2cc(Cl)ccc2F)cc1Nc1ccncc1C(=O)NC(CO)CO | – | human, advanced solid tumour | oral, dose not given, phase I monotherapy | – | ALT increase incidence, all grades | 23.8%
Cc1ccc(-c2ccc(-c3cc4sccc4o3)cn2)nc1 | – | acetonitrile | zinc complex | – | emission maximum | 505 nm
Cc1[nH]c(/C=C2\C(=O)Nc3ccc(F)cc32)c(C)c1NC(=O)CCN1CCN(C)CC1 | – | dog plasma | 1.00 ng/mL, 30 d frozen, -80 °C | – | accuracy deviation | -1.4%
Brc1ccc(Nc2nc(NN=Cc3c[nH]c4ccccc34)nc(N3CCOCC3)n2)cc1 | – | rat liver microsomes | – | – | metabolic stability | stable
NS(=O)(=O)c1ccc(N2N=C(C(F)(F)F)CC2c2ccc(F)cc2F)cc1 (stereo not drawn) | – | beagle dog, plasma | oral, 1 mg/kg, single dose | – | half-life | 31 h
CC(C)(O)c1ncc([S@](N)(=O)=NC(=O)Nc2c3c(cc4c2CCC4)CCC3)s1 | – | healthy human | oral, 30 mg once daily, day 1, capsule formulation, median | – | Tmax | 1.27 h
CC/C=C\C/C=C\C/C=C\C/C=C\C/C=C\CCCCOC(CC)C(=O)O (stereo not drawn) | [14C] label | male Wistar rat, kidney medulla | oral, 100 mg/kg, 8 h | – | radioactivity concentration | 76.6 µg equiv/g
NCCCC(=O)OCC(=O)c1ccc(O)c(F)c1F.O=C(O)C(F)(F)F | photolysis at 300 nm | ammonium acetate buffered acetonitrile-water | pH 5.0, 0.01 mol/L buffer | – | quantum yield of GABA release | 0.16
COC(=O)CN1CCN(CC(=O)OC)CCN(Cc2cc(-c3nc4ccccc4s3)cc(OC)c2O)CC1 | UV-Vis pH titration | – | 25 °C, ionic strength 0.1 M NaCl | – | pKa2 | 6.9
O=C(Cc1ccc(OCc2ccccc2)cc1)NC1(C(=O)O)CCN(C(=O)c2ccc(-c3cccc(Cl)c3)cc2)CC1 | – | BALB/c mice female | intraperitoneal, 20 mg/kg | – | apparent clearance (CL/F) | 50.1 mL/min/kg
Cn1c(=O)oc2ccc(-c3ccc(CC(C#N)NC(=O)C4CNCCCO4)c(F)c3)cc21 (stereo not drawn) | – | human | oral, 10 mg once daily, TEAE, multiple ascending dose | – | ALT increased incidence | 11.1%
Cc1ccc(/N=N/c2c(O)ccc3ccccc23)c(C)c1 | – | rat whole blood | 16.0 µg/L, 30 days, -20 °C, long-term storage | – | stability deviation | 0.4%
NCCCC(=O)OCC(=O)c1c(F)cc(O)cc1F.O=C(O)C(F)(F)F | photolysis, item: disappearance of compound | unbuffered water | – | – | quantum yield | 0.16
COc1cc(C)c(Cc2ccc(O)cc2)cc1[C@@H]1S[C@H](CO)[C@@H](O)[C@H](O)[C@H]1O | – | Japanese T2DM patients, urine | 5 mg luseogliflozin, day 1, once daily | baseline: dose | urinary excretion 0-24 h | 6.7 ± 1.18%
C#CCOc1ccc(/C=C2\SC(=O)N(CC(=O)NCc3ccccc3)C2=O)cc1 | inverse Kirkwood-Buff integrals | binary solvent mixture | 298.15 K, mole fraction x1 0.40 | – | Kirkwood-Buff integral G1,3 | -264 cm³/mol
CCCC[C@H](NC(=O)CNC(=O)CNC(=O)CN1CCN(CC(=O)O)CCN(CC(=O)O)CCN(CC(=O)O)CC1)C(=O)N[C@H]1CC(=O)NCCCC[C@@H](C(N)=O)NC(=O)[C@H](Cc2c[nH]c3ccccc23)NC(=O)[C@H](CCCNC(=N)N)NC(=O)[C@@H](Cc2ccccc2)NC(=O)[C@H](Cc2c[nH]cn2)NC1=O [copper-64 labelled] | – | female C57 mouse, B16/F1 melanoma | intravenous, 0.037 MBq, 4 h | baseline: tumour over liver | uptake ratio | 0.55
CN1CCC[C@]1(C)/C=C/S(=O)(=O)NC(=O)Nc1c2c(cc3c1CCC3)CCC2 | – | human, urine | oral, 25 mg single dose | – | percent of dose in urine | 84.8%
CCCC(CCC)NC(=O)c1ccc(OC2OC(C(=O)O)C(O)C(O)C2O)c(OC)c1 (stereo not drawn) | – | female Sprague-Dawley rats, plasma | oral, 200 mg/kg of parent drug | baseline: 200 over 20 mg/kg dose | Cmax ratio | 4.24

Excerpt of the above:
SMILES | test | system | setting | how to read | measurement | value
Cc1ccc(-c2ccc(-c3cc4sccc4o3)cn2)nc1 | – | acetonitrile | zinc complex | – | emission maximum | 505 nm
COc1cc(C)c(Cc2ccc(O)cc2)cc1[C@@H]1S[C@H](CO)[C@@H](O)[C@H](O)[C@H]1O | – | Japanese T2DM patients, urine | 5 mg luseogliflozin, day 1, once daily | baseline: dose | urinary excretion 0-24 h | 6.7 ± 1.18%
